Experimental data pooled from the literature.
A part holds a random share of what one study measured.

Series 1
Target: PABPC1L2, full length, GST fusion (mouse, UniProt A0ABA7IW68)
Method: RNAcompete
Form: RNA
Sample: in vitro
Tested at: 20 nM
Setting: 7-mer, probes averaged, single round
Relative to: mean of 7-mers
Reading: higher = stronger binding
Construct (chain): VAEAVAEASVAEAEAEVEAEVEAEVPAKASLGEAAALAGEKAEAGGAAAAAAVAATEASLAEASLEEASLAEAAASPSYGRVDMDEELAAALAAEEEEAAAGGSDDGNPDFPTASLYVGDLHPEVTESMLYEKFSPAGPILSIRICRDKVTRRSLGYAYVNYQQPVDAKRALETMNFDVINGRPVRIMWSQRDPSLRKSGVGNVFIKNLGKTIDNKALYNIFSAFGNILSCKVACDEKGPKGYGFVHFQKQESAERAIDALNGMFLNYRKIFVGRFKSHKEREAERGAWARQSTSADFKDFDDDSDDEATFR
Oligonucleotide | 7-mer Z-score
CCAAUAC | -0.15
GGUAAUU | -0.0355
GCCGGGU | -0.124
GUUGCGG | -0.0536
AACAGUC | 0.532
GUGCAAA | 0.619
CGAACUG | -0.17
UUCCGGG | -0.246
UGUGCCC | -0.293
AGGGGAG | 0.456
CAAUCCC | -0.387
UACACUA | -0.213
UAAACGG | 0.204
CGUCGGU | -0.387
CGCAACC | -0.269
CCGGAUG | -0.021

Series 2
Target: Interferon regulatory factor 5, full length, phosphomimetic (IRF5, Homo sapiens, UniProt Q13568-2, residues 1-514, K96S/S451D/S453D/S456D/S462D)
Method: protein-binding microarray
Form: double-stranded DNA, one strand shown
Sample: in vitro
Tested at: 250 nM
Setting: 60-bp whole probe
Together with: salmon DNA 0.4 mg/ml
Relative to: random background probes
Reading: higher = stronger binding
Constant ends, left off below: GCCTAGCAC … GTCTTGATTCGCTTGACGCTGCTG
Oligonucleotide | log fluorescence
ATGCCTTTCTCTTGGAGCTTGTGCTAG | 0.946 z-score
TTAGGTCTCCTAATGCTTTAGTGCTAG | 0.00449 z-score
GCCCTTATCCAATCAGAATTGTGCTAG | -0.0097 z-score
GACGATATCATTCTCGAGACGTGCTAG | 1.06 z-score
TTAGGTATCCTTCTCCTTCAGTGCTAG | 0.243 z-score
TTAGAACTGGGGAGTGGATTAGTGCTA | -0.372 z-score
GTCATTTACATTTTAGTAGTGTGCTAG | 0.589 z-score
TTAGGACTGGGTTGCGGTTAGTGCTAG | 0.242 z-score
TTAGATTTGAGTATCGATTAGTGCTAG | 6.63 z-score
GACGGAGTGCTTCTCCTGACGTGCTAG | -0.412 z-score
ACTAATTTCCATTTTCTAAAGTGCTAG | 2.2 z-score
GATCCTTCCCCTCTAGGTTCGTGCTAG | -0.0535 z-score
TTAGGACTGGGGATTGGGTTAGTGCTA | -0.185 z-score
TTACGTTTCGACTTTCGGTTAGTGCTA | 10.7 z-score
GACGATTTAAGTCTCGAGACGTGCTAG | 0.328 z-score
GACGGTTTCGGTATCGGGACGTGCTAG | 9.96 z-score
GACGGTTTCGTTTCCGGGACGTGCTAG | 6.06 z-score
GACGATTTCGGGTAGCGAGACGTGCTA | 3.8 z-score
TTGAGTTTTCCTTCATGTGCGTGCTAG | 0.714 z-score
TCATATTTAAGACCTATGACTGTGCTA | 0.466 z-score
TTGGGTCTGGGTATTTTTCTGTGCTAG | 0.0163 z-score
GACGGACTGGACTTTTGGGACGTGCTA | -0.123 z-score

Series 3
Target: Ras GTPase-activating protein-binding protein 1, full length (G3BP1, Homo sapiens, UniProt Q13283)
Sequence of UniProt Q13283 (whole entry, looked up): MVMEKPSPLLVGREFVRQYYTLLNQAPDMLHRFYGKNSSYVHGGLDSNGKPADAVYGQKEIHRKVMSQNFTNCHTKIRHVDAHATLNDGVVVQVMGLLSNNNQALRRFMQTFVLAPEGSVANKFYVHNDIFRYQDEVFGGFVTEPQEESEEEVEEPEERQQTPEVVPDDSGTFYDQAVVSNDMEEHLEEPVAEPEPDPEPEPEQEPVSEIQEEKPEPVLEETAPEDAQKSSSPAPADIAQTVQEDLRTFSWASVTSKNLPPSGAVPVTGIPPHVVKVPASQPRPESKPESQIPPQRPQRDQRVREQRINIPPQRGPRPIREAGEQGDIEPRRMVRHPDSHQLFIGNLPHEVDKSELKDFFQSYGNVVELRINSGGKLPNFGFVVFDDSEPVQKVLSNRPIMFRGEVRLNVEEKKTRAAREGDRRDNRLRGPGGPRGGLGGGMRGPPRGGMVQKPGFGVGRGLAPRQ
Method: RNA Bind-n-Seq
Form: RNA
Sample: in vitro
Tested at: 200 nM
Setting: whole 134-nt RNA, ends assumed
Together with: 150 mM KCl
Relative to: input library
Reading: higher = stronger binding
Oligonucleotide | log2 enrichment
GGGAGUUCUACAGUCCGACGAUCCUAGAGAGCUGUAGUACACAUGGAUGAACGACGAGAAGAACAAAUUGUACAGUUACUGAAUUCUGUUCAAGCGAAGAAUGAUAAAGAGUCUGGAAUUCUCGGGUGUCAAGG | 0.402
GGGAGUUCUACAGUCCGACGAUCAGUCCUGUGCUACACAUCGUAUGUACCGAAUCGGGGUGGGGAAAAAGGGGUUUGGGGAAAGUAUUAUGUUACGCCGUUCGGAUCUGCACUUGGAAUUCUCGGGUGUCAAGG | 0.309
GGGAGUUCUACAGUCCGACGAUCGUCCUGUGCUACACAUCGUAUGUACCGAAUCGGGCCCCCGGGGCCCCCGGGCCCCCGGGAAAGUAUUAUGUUACGCCGUUCGGAUCUGCAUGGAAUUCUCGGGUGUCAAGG | -0.727
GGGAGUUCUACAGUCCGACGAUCGCAGGAAGUAAAAACAAAUGGAAAUGCUUCGGAUAGUGGCAGGGGUGGGGGUUGCUAAGAAAAGGGUGGGAUGGGAGUGGGUAAAGAGUUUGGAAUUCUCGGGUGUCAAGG | 0.493
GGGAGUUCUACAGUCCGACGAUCCAAGCCAAGGAAAUGGUGUUAGAGUUAAUUCGUGAUCAAGGCGGUUUCAGAGAAGUUCGGAAUGAGUAUGGGUCAAGAAUAGGAGGAAAUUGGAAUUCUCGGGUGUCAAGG | -1.34
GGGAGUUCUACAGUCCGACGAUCCCUUUUUGAGAAGGCCGGACCCAUUUGGGAUCUACGUCUUAUGAUGGAUCCACUGUCCGGUCAGAAUAGAGGGUAUGCAUUUAUCACCUUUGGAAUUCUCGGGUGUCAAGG | -1.28
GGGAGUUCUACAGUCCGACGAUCUGGGAGGUGGAUUUUGUUUAUUUUUUUAGCUCAUUUCCAGGGGUGGGAAUUUUAUUUUAAUAUGUGUCAUGAAUAAAGUUGUUUUUGAAAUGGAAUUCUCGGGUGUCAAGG | 0.177
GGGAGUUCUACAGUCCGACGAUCAGUCCUGUGCUACACAUCGUAUGUACCGAAUCGGGGCCCCGGGCCCCGGGCCCCGGGGAAAGUAUUAUGUUACGCCGUUCGGAUCUGCACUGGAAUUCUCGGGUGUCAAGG | -0.581
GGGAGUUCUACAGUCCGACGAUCGUCCUGUGCUACACAUCGUAUGUACCGAAUCAAAUUUAAAUUUUUUUAAAUUUUUAAAAAAGUAUUAUGUUACGCCGUUCGGAUCUGCACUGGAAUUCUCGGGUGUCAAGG | -1.53
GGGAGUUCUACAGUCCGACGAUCCUCAAGUCCUGUGCUACACAUCGUAUGUACCGAAUCGGUGGGGUGGGGUGGGGAAAGUAUUAUGUUACGCCGUUCGGAUCUGCACUUCCAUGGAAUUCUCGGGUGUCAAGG | 1.06

Series 4
Target: RING finger protein unkempt homolog, zinc fingers 1-6, SBP tag (UNK, Homo sapiens, UniProt Q9C0B0, residues 30-357)
Sequence of UniProt Q9C0B0 (30-357, looked up): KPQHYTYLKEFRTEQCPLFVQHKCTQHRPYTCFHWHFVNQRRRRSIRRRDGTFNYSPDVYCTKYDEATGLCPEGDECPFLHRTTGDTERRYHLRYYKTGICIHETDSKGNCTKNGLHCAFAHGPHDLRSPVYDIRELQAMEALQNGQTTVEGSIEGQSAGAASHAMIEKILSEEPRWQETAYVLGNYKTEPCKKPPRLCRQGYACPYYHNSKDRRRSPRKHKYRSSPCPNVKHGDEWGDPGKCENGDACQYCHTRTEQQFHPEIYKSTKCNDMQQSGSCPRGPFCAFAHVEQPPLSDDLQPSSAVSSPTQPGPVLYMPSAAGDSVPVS
Method: RNA Bind-n-Seq
Form: RNA
Sample: in vitro
Tested at: 100 nM
Setting: RNA with constant flanks, vertebrate orthologous sites, ends assumed
Relative to: input RNA pool
Reading: higher = stronger binding
Oligonucleotide | bound/input enrichment [ratio]
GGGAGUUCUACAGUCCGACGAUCCAUAAAAUAUUGGAUGCAGUGUAUAAAUUAUCCAAGGCAGUGACUUCAGCUUUAUAUAUAUUGUUAGUUUUAAAGUCAUCUACUUUUAUUUAAACUUCUAGAUUGGACUAUUUGCUAUUGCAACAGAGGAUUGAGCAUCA | 0.572
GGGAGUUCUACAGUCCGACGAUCCAUUGGGUUACUCUUAUUAUCAAGUAGCUGGAAUUGUGAAGGUCGGAGUAGUUAGAUCUUUAGCUUUUAUUCCUUAUUUUUUUGUAUUACUAUCCAUGUGUAUAAAUUAUUGAUCAUGUUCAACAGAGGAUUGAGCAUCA | 2.4
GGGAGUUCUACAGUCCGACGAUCCUACACCAGAUACUUAAACUGUUUUAAAGUUACAAACAAGCUUUGCUUUUUGCAUUUAAAUAGAAUACUUUUAUAUUGUAAGUGCUUCAAAUGUGUGGAGAUGUUAGUUUGCUCUUAUAACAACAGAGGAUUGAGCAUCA | 0.514
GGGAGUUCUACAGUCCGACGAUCAUCUCGCGCUCCCCCUGUGAGGGAGUGGGGGGAGCCUGAGGACCCUCGGCUGGUCCAAGCCAGUAUCUGUUUUCUCCUUUUUUUUAAUGGCUGUAUUUAUUAUGACGAUGGCGACUCCCCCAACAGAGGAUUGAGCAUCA | 1.04
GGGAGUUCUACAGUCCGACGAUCUGCAUUAUUUGACAAGAGUUGAAGUGACAGAAUUUGAAGAUAUUAAAUCAGGUUACAGAAUAGAUUUUUAUUUUGAUGAAAACCCUUACUUCAAAAAUAAAAUUAGCUCCAAAGAAUUUCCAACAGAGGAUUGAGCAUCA | 0.296
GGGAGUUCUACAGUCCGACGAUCUUUUAUUGAUCAGGUCUGUAAAUGUGUACUAAAAAAAUCAGAGUUUAUUUAUGAAUUGAAUAGUUUAUUUAAAAAGAAGGUCUUUCCUUAUCCAUGUUGUGGUAUGCAUUAAUUCCAUUUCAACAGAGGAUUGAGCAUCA | 0.632
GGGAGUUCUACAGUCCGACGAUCGACCUCCUGAACUUCUAGCUUUCAAGCUGUGGCUGUUUUAGAUACUGGUUUUAUUUUCUUUACAAUUUUCCUGCCUUUCUUCCCAUGUUCCCAAGGUUUGACUCAUGGAUCUUAUUCUUCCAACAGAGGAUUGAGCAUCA | 2.62
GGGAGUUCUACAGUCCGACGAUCGAGUGCUUAAGCCGCCAACAGUUAGAAGAUGCUAUUUAUUUGUGUCUGUAAGUUUGUACAUAGUAAUGCCAGCCUUGUUGCUGAAUUUUUUAUUUGUGGGGAGAUGAGUUUGAAUUUUGUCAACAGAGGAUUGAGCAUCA | 2.03
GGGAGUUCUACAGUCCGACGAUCAUCCCUCAGUGACAGUAUGCCAUCUGUAGCAGAUUCCCACUCUAGUCAUUUUUCUGAAUUUAGUUGUUCUGACCUAGAAAGCAUGAAAACUUCUUGUAGUCAUGGUUCCAAUGAUUAUCACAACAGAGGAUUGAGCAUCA | 3.22
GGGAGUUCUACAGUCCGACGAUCUACCUCCUGAACUUCUAGCUUUCAAGUUGUGGCUGUUUUUUGUUUUUGUUUUCUUUUCUUUAGAAUUUUUCCCUGUUUCCCACCUUCUCUUCCCCUGUUGCCAAGGUCUAACUCAUGGAUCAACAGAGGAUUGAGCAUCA | 1.68
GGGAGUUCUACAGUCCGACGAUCUUCAGUCCCCUGGGCCGGGACAGAUUUUUUUAACGUCUUGAAACUUAAACUCUGUGCUUGUAGGAGACUGUAACCUUUUUGUCUUUUUUUUUUUUAAACAAACAACCUCCAUCUCCAGUGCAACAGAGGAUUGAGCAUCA | 0.811

Repeated from above (series 2):
Oligonucleotide | log fluorescence
GACGGTTTCGTTTCCGGGACGTGCTAG | 6.06 z-score
GACGATTTCGGGTAGCGAGACGTGCTA | 3.8 z-score
TTGAGTTTTCCTTCATGTGCGTGCTAG | 0.714 z-score
TCATATTTAAGACCTATGACTGTGCTA | 0.466 z-score
TTGGGTCTGGGTATTTTTCTGTGCTAG | 0.0163 z-score
GACGGACTGGACTTTTGGGACGTGCTA | -0.123 z-score
